Assay results from different studies.
A part holds a random share of what one study measured.

Set 1 — technique: protein-binding microarray; molecule type: double-stranded DNA, one strand shown; sample: in vitro; concentration: not given; reading: higher = stronger binding
Target: Transcriptional repressor CTCF (CTCF, Homo sapiens, UniProt P49711, residues 1-727, full length assumed)
Sequence of UniProt P49711 (whole entry, looked up): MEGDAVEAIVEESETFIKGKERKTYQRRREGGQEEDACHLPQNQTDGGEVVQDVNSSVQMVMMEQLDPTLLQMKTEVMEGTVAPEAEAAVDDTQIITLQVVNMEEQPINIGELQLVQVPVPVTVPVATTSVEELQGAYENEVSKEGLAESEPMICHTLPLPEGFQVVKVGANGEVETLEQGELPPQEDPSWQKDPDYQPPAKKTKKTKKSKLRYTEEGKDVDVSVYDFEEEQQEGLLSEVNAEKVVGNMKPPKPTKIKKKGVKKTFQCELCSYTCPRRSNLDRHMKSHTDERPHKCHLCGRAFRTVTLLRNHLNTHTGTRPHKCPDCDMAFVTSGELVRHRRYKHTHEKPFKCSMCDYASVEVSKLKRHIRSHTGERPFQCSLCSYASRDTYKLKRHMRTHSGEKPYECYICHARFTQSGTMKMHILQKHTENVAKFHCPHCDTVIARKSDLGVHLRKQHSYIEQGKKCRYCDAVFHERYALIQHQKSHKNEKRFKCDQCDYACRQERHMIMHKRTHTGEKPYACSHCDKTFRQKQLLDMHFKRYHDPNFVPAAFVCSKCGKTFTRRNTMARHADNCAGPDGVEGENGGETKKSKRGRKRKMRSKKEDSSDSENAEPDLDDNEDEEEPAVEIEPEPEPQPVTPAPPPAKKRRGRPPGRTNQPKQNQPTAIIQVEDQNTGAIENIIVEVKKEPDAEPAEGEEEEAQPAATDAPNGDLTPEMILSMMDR
Notes: k-mer, scored over probes, only values ≥0.25
For `CGCCGCCC`, the E-score was 0.306.
The E-score of `CATCCGCA` is reported as 0.261.
The E-score of `AACCGCTA` is reported as 0.264.
`GAATAGTA` has an E-score of 0.274.
With `GCGCGTGA` the E-score was 0.284.
With `TGCGCGAA` the E-score was 0.332.
The E-score of `TGGTATAA` is reported as 0.271.
For `AAATGTGC`, the E-score was 0.278.
The E-score of `GTATAGTA` is reported as 0.262.
For `TATGTTCA`, the E-score was 0.283.
The E-score of `CTTTGCGC` is reported as 0.286.
For `CCCCTAGG`, the E-score was 0.293.
For `ACATGTAG`, the E-score was 0.261.
The E-score of `GTGTGTAA` is reported as 0.28.
The E-score of `CGATATTA` is reported as 0.288.
`CTACTATA` has an E-score of 0.34.
`ATTATAAT` has an E-score of 0.277.
The E-score of `AAAATCAT` is reported as 0.252.
For `ATGTAATA`, the E-score was 0.378.
With `ATATATCG` the E-score was 0.265.

Set 2 — technique: protein-binding microarray; molecule type: double-stranded DNA, one strand shown; sample: in vitro; concentration: 250 nM; notes: 60-bp whole probe; added: salmon DNA 0.4 mg/ml; reference: random background probes; reading: higher = stronger binding; constant ends, left off below: GCCTAGCAC … GTCTTGATTCGCTTGACGCTGCTG
Target: Interferon regulatory factor 5, full length, phosphomimetic (IRF5, Homo sapiens, UniProt Q13568-2, residues 1-514, K96S/S451D/S453D/S456D/S462D)
With `CAGTTAATGAAAATTCTAATTGTGCTA` the log fluorescence was 0.749 z-score.
The log fluorescence of `GACGGACTGCTTCTCCTTACGTGCTAG` is reported as -0.251 z-score.
`ATCTTAATAAGGTTTCCAATCGTGCTA` gave a log fluorescence of 0.215 z-score.
`AAAATGATTGGTTGAACATGGTGCTAG` has a log fluorescence of 0.478 z-score.
For `TAGTTTTTACTTTCTGAATGGTGCTAG`, the log fluorescence was 3.92 z-score.
`TTAGATTTCAGATCCGATTAGTGCTAG` gave a log fluorescence of 0.879 z-score.
For `TTAGATCTCTGTCTCGATTAGTGCTAG`, the log fluorescence was 0.442 z-score.
For `GATGGACTGGGTATCGGGACGTGCTAG`, the log fluorescence was 0.348 z-score.
The log fluorescence of `CTGAGATGCATTCTGGGCCCGTGCTAG` is reported as -0.514 z-score.
`GACGCTATCCTACTGCTGACGTGCTAG` has a log fluorescence of -0.257 z-score.
The log fluorescence of `GACGGTATCGACTATCGGCACGTGCTA` is reported as 4.04 z-score.
`TTTTTTTTCTTTAAAAGTGAGTGCTAG` has a log fluorescence of 1.18 z-score.
The log fluorescence of `TTAAGACTGGGACTGGGTTAGTGCTAG` is reported as -0.26 z-score.
`ACCCCAAAGAGGGGCAGTGTGTGCTAG` has a log fluorescence of -0.684 z-score.
`TTAGGTCTAGGTTTCGGTTAGTGCTAG` gave a log fluorescence of 8.07 z-score.
With `TTAGGTATCCTTTTCCTTCAGTGCTAG` the log fluorescence was 0.662 z-score.
`TTAGAACTGAGTATCGCTTAGTGCTAG` gave a log fluorescence of 2.21 z-score.
`CACGGTCTCGGTTTCGGGACGTGCTAG` gave a log fluorescence of 3.33 z-score.
With `TTAGAACTGGGGTATCGATAAGTGCTA` the log fluorescence was 2.45 z-score.

Set 3 — technique: RNA Bind-n-Seq; molecule type: RNA; sample: in vitro; concentration: not given; reference: input RNA pool; reading: higher = stronger binding
Target: RING finger protein unkempt homolog, zinc fingers 1-6, GST-SBP tag (UNK, Homo sapiens, UniProt Q9C0B0, residues 30-357)
Notes: RNA with constant flanks, human-mouse chimeric sites, ends assumed
Constant ends, left off below: GGGAGUUCUACAGUCCGACGAUC … CAACAGAGGAUUGAGCAUCA
Construct (chain): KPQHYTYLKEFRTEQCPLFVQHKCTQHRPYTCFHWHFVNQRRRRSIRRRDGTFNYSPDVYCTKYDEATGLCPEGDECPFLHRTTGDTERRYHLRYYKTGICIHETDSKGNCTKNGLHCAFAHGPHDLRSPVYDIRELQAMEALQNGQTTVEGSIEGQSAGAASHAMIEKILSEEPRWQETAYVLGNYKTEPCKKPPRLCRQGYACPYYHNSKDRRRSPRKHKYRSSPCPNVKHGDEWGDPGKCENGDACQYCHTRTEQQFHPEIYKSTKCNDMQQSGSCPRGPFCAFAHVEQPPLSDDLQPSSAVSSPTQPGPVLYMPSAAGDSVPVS
`GGACCAUAAUCAUGGAGGACAUAAUGCAGCUCCCCAAAGCGCGCGUCAACGCCGGCAUGUUACCACAGUAUAUCGACCGGCCCGUGUGCUUCGUGGGGAAGCUGGAAAAGAUUCAUCCCA` has a bound/input enrichment of 0.0801 ratio.
`GUGUCCUUUCAACUUAAUAAAUCACUGAGGCAUCUCUACUGUUCUGUGAGCAUCAGGACUGUAGCGCUUGCCACCACCAUGAGAGUUCAGAAGCAGCCUUUCUGUGGAGGGUGGGAAUGA` has a bound/input enrichment of 0.182 ratio.
`UAAAUCCUGUGCCAGCACUUCGCUCAUAAAGUUUUAAAUUCUGGACCAAUAGUGUUUGUUUCCUGAUUAUUGUAUCCAAUACUUUGCGUACUAUGUGACUCACUCUUACUGAUAAUAAAA` gave a bound/input enrichment of 0.728 ratio.
`CUGUGACCACAAGAUCCUACCUGAGUGUUCAGAUGGGUUGACUCCCUCUCCUUGCCUGAACCCCCCCCCACUGCCCCCCCAUCCCCCAGUGUCGGCUAUUCUCUGGUCUCUGCACGGUUC` has a bound/input enrichment of 1.32 ratio.
The bound/input enrichment of `AUAGAUGAAAUUGAUGUGGACCAGGAAGGAAUUGCUGAAAUGAUCCUGGAUGAAAAUGCUAUUGCUCAAGUUCCACGCCCUGGCACAUCUUUGAAGCUCCCUGGCACUAAUCAGACAGGA` is reported as 0.25 ratio.
For `CUCAGAGACGUGGCAUAUCAGUAUGUGAAAAAGGGGGCUCGAAUUUAUGUGGAAGGGAAAGUGGACUAUGGCGAGUACAUGGAUAAAAACAAUGUGAGGCGGCAAGCAACAACAAUCAUA`, the bound/input enrichment was 0.373 ratio.
`CUGGCCUGGCCCUCCCCAGGGGCCUCCUUUCGUAUAGUAACUGUCAGUGCAUCAGAUACUUUCAGCUCCAAGUCCUGACUGGGUGGGGCACCCAUUUCAGGCAGAAGGUUUUGGUACCCU` gave a bound/input enrichment of 0.238 ratio.
The bound/input enrichment of `GAUAAGAAAAGCUUGUUGGAGACCCGAUUGCAUGUCACUGGUAGAGACCUGAGGUGUCAAAUAGCUGAAACCUUUGGAUUUCAAGAAAAUUACAUCAAGAUCGUAAUAAAUAAGAAACAG` is reported as 0.262 ratio.

Set 4 — technique: protein binding microarray; molecule type: double-stranded DNA, one strand shown; sample: in vitro; concentration: not given; reference: not given; reading: higher = stronger binding
Target: Histone acetyltransferase KAT6A, winged helix 1, GST fusion (KAT6A, Homo sapiens, UniProt Q92794, residues 1-85)
Notes: 8-mer, flanks averaged, mean of 2 arrays, mostly near background
Construct (chain): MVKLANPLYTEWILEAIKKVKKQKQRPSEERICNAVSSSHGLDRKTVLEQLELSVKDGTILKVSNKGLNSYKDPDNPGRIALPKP
The E-score of `GCTCGCTA` is reported as 0.0429.
`ACACGCAA` gave an E-score of 0.0667.
With `AGGATAAG` the E-score was -0.175.
`CGGGGACG` gave an E-score of 0.228.
With `GCGTACCA` the E-score was 0.0114.
`CCAAACCA` has an E-score of -0.223.
`ACTTGTCG` gave an E-score of 0.116.
The E-score of `CAGTAATC` is reported as -0.144.
`GAGCGTCC` has an E-score of 0.0782.
`CTGGTGTC` has an E-score of -0.322.
`GAAAGGTC` has an E-score of -0.0795.
With `GGATGAGA` the E-score was -0.14.
The E-score of `CGCTGTTA` is reported as 0.203.
`GGCTATAC` has an E-score of 0.216.
`ATCAGCAC` gave an E-score of -0.232.
`AAGAGTGA` gave an E-score of -0.247.
The E-score of `CCGTCAAA` is reported as 0.196.
The E-score of `GCAGGGGA` is reported as -0.0146.
For `TACGGACA`, the E-score was 0.129.
For `CTAATGCA`, the E-score was -0.115.
With `CACCCGAA` the E-score was -0.0919.
The E-score of `CTCGCAAA` is reported as -0.121.
For `CTAATTAG`, the E-score was -0.108.
`AGAGCAAG` has an E-score of -0.12.
For `AATAAAGA`, the E-score was -0.183.

A few entries again (set 4):
The E-score of `GCAGGGGA` is reported as -0.0146.
With `CACCCGAA` the E-score was -0.0919.
`ACACGCAA` gave an E-score of 0.0667.
`ATCAGCAC` gave an E-score of -0.232.
The E-score of `CAGTAATC` is reported as -0.144.
`GGCTATAC` has an E-score of 0.216.
The E-score of `GCTCGCTA` is reported as 0.0429.
`CCAAACCA` has an E-score of -0.223.
With `GGATGAGA` the E-score was -0.14.
